Results pooled from the literature.
Protocols differ between the studies behind these lines. ± marks the error that the study gave.

Structure (SMILES) | assay | test system | conditions | how to read | measurement | value
CC(C)[C@H](N)C(=O)N[C@@H](Cc1ccc(O)cc1)C(=O)N[C@@H](CCCCN)C(=O)N[C@H](C(=O)N[C@@H](CCCCN)C(=O)N[C@H](C(=O)N[C@@H](CCCCN)C(=O)N[C@H](C(=O)N[C@@H](CCCCN)C(=O)N[C@H](C(=O)N[C@@H](CCCCN)C(=O)N[C@H](C(=O)N[C@@H](CCCCN)C(=O)N[C@H](C(=O)N[C@@H](CCCCN)C(=O)N[C@H](C(=O)N[C@@H](CCCCN)C(=O)N[C@H](C(=O)O)[C@@H](C)O)C(C)C)[C@@H](C)O)C(C)C)[C@@H](C)O)C(C)C)[C@@H](C)O)C(C)C | circular dichroism, measured: enoxaparin concentration | PBS | 0.05 mg/mL | – | transition midpoint | ~7 µM
C=C(NC(=O)C(=C)NC(=O)c1csc(C2=NC3c4csc(n4)C4NC(=O)c5csc(n5)C(C(C)(O)C(C)O)NC(=O)C5CSC(=N5)C(=CC)NC(=O)C(C(C)O)NC(=O)c5csc(n5)C3(CC2)NC(=O)C(C)NC(=O)C(=C)NC(=O)C(C(C)CC)NC2C=Cc3c(C(C)O)cc(nc3C2O)C(=O)OC4C)n1)C(N)=O (stereo not drawn) | protein synthesis, coupled transcription-translation, measured: luciferase | Escherichia coli S30 extract | 1 h, 37 °C | – | IC50 | 8.1 ± 1 µM
CC(C)C[C@H](NC(=O)[C@H](C)NC(=O)CNC(=O)[C@H](CO)NC(=O)CNC(=O)[C@H](CCCNC(=N)N)NC(=O)[C@H](CCCNC(=N)N)NC(=O)[C@H](CCCNC(=N)N)NC(=O)[C@H](CCC(N)=O)NC(=O)[C@H](CCCNC(=N)N)NC(=O)[C@H](CCCNC(=N)N)NC(=O)[C@H](CCCCN)NC(=O)[C@H](CCCCN)NC(=O)[C@H](CCCNC(=N)N)NC(=O)CNC(=O)[C@@H](N)Cc1ccc(O)cc1)C(=O)N[C@@H](CO)C(=O)N[C@H](C(=O)N[C@@H](CCC(=O)O)C(=O)N[C@@H](CCCNC(=N)N)C(=O)O)[C@@H](C)O | – | isolated rat heart | concentration not given, ischemia/reperfusion | – | ALDH2 phosphorylation | no effect
COc1ccc([N+](=O)[O-])cc1NC(=O)CCC(=O)[O][Zn][O]C(=O)CCC(=O)Nc1cc([N+](=O)[O-])ccc1OC.c1ccncc1 | antioxidant activity | – | 1000 µg/mL | – | DPPH scavenging | 74.2 ± 0.77%
CCN(Cc1ccccc1)C(=O)CCc1nc(CN2CCN(C(=O)Cc3ccc(OC)c(OC)c3)CC2)no1 | current clamp | L4-L6 DRG neurons, rat CCI model | 1 µM, together with: 500 pA current injection | – | action potential threshold | -10.5 ± 2.34 mV
C[C@H](NC(=O)[C@H](CCC(N)=O)NC(=O)[C@H](CCCCN)NC(=O)[C@H](C)NC(=O)[C@@H]1CCCN1C(=O)[C@H](C)NC(=O)[C@H](CCCCN)NC(=O)[C@H](CCC(N)=O)NC(=O)[C@H](C)NC(=O)[C@H](CCCCN)NC(=O)[C@H](CCC(N)=O)NC(=O)[C@@H]1CCCN1C(=O)[C@H](CCC(N)=O)NC(=O)[C@H](CCCCN)NC(=O)[C@H](C)NC(=O)[C@H](CCC(N)=O)NC(=O)[C@H](CCCCN)NC(=O)[C@H](C)NC(=O)[C@@H]1CCCN1C(=O)[C@H](C)NC(=O)[C@H](CCCCN)NC(=O)[C@H](CCC(N)=O)NC(=O)[C@H](C)NC(=O)[C@H](CCCCN)NC(=O)[C@H](CO)NC(=O)[C@H](Cc1ccc(O)cc1)NC(=O)CNC(=O)CNC(=O)CN)C(=O)N[C@@H](CCCCN)C(=O)N[C@@H](CCC(N)=O)C(=O)O | – | human IAPP fibrils | 1 h, room temperature | reference: 1 M NaCl over PBS | binding ratio | 0.07
COC[C@@H](NC(C)=O)C(=O)NCc1ccc(OCc2cccc(OC(F)(F)F)c2)cc1 | maximal electroshock seizure test | mouse | ip, time of peak effect | – | ED50 | 12 mg/kg
CC(C)C[C@H](NC(=O)CN)C(=O)NCC(=O)N[C@@H](CCCCN)C(=O)N[C@@H](CC(C)C)C(=O)N[C@@H](CC(C)C)C(=O)N[C@@H](Cc1c[nH]cn1)C(=O)N[C@@H](C)C(=O)N[C@@H](C)C(=O)N[C@@H](CCCCN)C(=O)N[C@@H](CCCCN)C(=O)N[C@@H](CC(C)C)C(=O)NCC(=O)N[C@@H](CCCCN)C(=O)N[C@@H](C)C(=O)N[C@@H](Cc1c[nH]c2ccccc12)C(=O)N[C@@H](CC(C)C)C(=O)NCC(=O)N[C@@H](CCC(=O)O)C(=O)N[C@@H](CC(C)C)C(=O)N[C@@H](CC(C)C)C(=O)N[C@@H](C)C(=O)N[C@@H](C)C(=O)O | – | POPC/POPG 1:1 vesicles | – | – | static quenching constant | 140 M⁻¹
CC[C@H](C)[C@H](NC(=O)[C@H](Cc1ccc(O)cc1)NC(=O)[C@@H]1CCCN1C(=O)[C@H](CCCNC(=N)N)NC(=O)[C@H](CCCNC(=N)N)NC(=O)[C@H](CO[C@@H]1O[C@H](CO[C@H]2O[C@H](CO)[C@H](O)[C@H](O)[C@H]2O)[C@@H](O)[C@H](O)[C@H]1O)NC(=O)[C@H](CCCCN)NC(=O)[C@H](CC(N)=O)NC(=O)[C@H](CCC(=O)O)NC(=O)[C@H](Cc1ccc(O)cc1)NC(=O)[C@H](CC(C)C)NC(=O)[C@@H]1CCC(=O)N1)C(=O)N[C@@H](CC(C)C)C(=O)O | 6 Hz seizure test | CF-1 mouse | intracerebroventricular, 30 min, 32 mA corneal stimulation | – | ED50 | 0.0004 nmol
CC(=O)N[C@@H](Cc1c[nH]c2ccccc12)C(=O)NCC(=O)N[C@@H](C)C(=O)N[C@H]1CSCC(=O)Nc2ccc(cc2)N=Nc2ccc(c(S(=O)(=O)O)c2)-c2ccc(cc2S(=O)(=O)O)N=Nc2ccc(cc2)NC(=O)CSC[C@@H](C(=O)N[C@@H](C)C(=O)N[C@@H](CCC(N)=O)C(N)=O)NC(=O)[C@H](CCCNC(=N)N)NC(=O)[C@H](C)NC(=O)[C@H](C)NC(=O)[C@H](C)NC(=O)[C@H](CCC(=O)O)NC(=O)[C@H](CCCNC(=N)N)NC(=O)[C@H](C)NC(=O)[C@H](C)NC(=O)[C@H](C)NC(=O)[C@H](CCC(=O)O)NC(=O)[C@H](CCCNC(=N)N)NC(=O)[C@H](C)NC(=O)[C@H](C)NC(=O)[C@H](C)NC(=O)[C@H](CCC(=O)O)NC(=O)[C@H](CCCNC(=N)N)NC(=O)[C@H](C)NC(=O)[C@H](C)NC(=O)[C@H](C)NC(=O)[C@H](CCC(=O)O)NC1=O | cis-to-trans reversion, UV-Vis absorbance | 10 mM phosphate buffer | pH 7.0, 37 °C, together with: 365 nm irradiation | – | thermal relaxation half-life | 4.9 ± 0.2 min
CC[C@H](C)[C@H](NC(=O)[C@@H](NC(=O)[C@H](CC(=O)O)NC(C)=O)[C@@H](C)O)C(=O)N[C@@H](CCCNC(=N)N)C(=O)N[C@@H](CC(C)C)C(=O)N[C@@H](CC(C)C)C(=O)N[C@@H](Cc1ccccc1)C(=O)N[C@@H](CCC(N)=O)C(=O)N[C@@H](CC(C)C)C(=O)N[C@@H](CCSC)C(=O)N[C@@H](CCCNC(=N)N)C(=O)N1CCC[C@H]1C(=O)N1CCC[C@H]1C(=O)N[C@@H](CC(N)=O)C(=O)N[C@@H](CCSC)C(=O)N[C@H](C(=O)N1CCC[C@H]1C(=O)N[C@@H](C)C(=O)N[C@H](C(=O)N[C@@H](CC(N)=O)C(=O)N[C@@H](C)C(N)=O)C(C)C)[C@@H](C)O | measured: HA-19 tetramer | antigen-experienced tetramer+ CD4 T cells, healthy adults, HLA-DRB1*0101 | dose not given | – | α4β7− CCR9+ cells | 4%
C[C@@H](NC(=O)[C@@H](CCC(N)=O)NC(=O)[C@@H](C)NC(=O)[C@@H](CCCCN)NC(=O)[C@@H](CCC(N)=O)NC(=O)[C@@H](C)NC(=O)[C@@H](CCCCN)NC(=O)[C@@H](CCC(N)=O)NC(=O)[C@@H](C)NC(=O)[C@@H](CCC(N)=O)NC(=O)[C@@H](CCCCN)NC(=O)[C@@H](C)NC(=O)[C@@H](CCC(N)=O)NC(=O)[C@@H](CCCCN)NC(=O)[C@@H](C)NC(=O)[C@@H](CCC(N)=O)NC(=O)[C@@H](C)NC(=O)[C@@H](CCCCN)NC(=O)[C@@H](CCC(N)=O)NC(=O)[C@@H](C)NC(=O)[C@@H](CCCCN)NC(=O)[C@@H](CO)NC(=O)[C@@H](Cc1ccc(O)cc1)NC(=O)CNC(=O)CNC(=O)CN)C(=O)N[C@H](CCCCN)C(=O)N[C@H](CCC(N)=O)C(=O)N[C@H](C)C(=O)N[C@H](CCCCN)C(=O)N[C@H](CCC(N)=O)C(=O)O | – | rVλ6Wil fibrils | 1 h, room temperature, 0.05% Tween-20 | reference: 1 M NaCl over PBS | binding ratio | 0.3
O=C(O)CCn1c(=O)oc2cc(Cl)c(Cl)cc21 | – | rat, acute pancreatitis model, bronchoalveolar lavage fluid | dose not given, 6 h | – | total protein | 142 ± 6 mg/L
CC(C)C[C@@H]1NC(=O)[C@H](C(C)C)NC(=O)[C@H](CO)NC(=O)CNC(=O)CNC(=O)[C@H](CCCNC(=N)N)NC(=O)[C@@H]2CCCN2C(=O)[C@@H](NC(=O)CC[C@H](NC(=O)c2ccc(N(C)Cc3cnc4nc(N)nc(N)c4n3)cc2)C(=O)O)C(C)(C)SSC[C@@H](C(=O)O)NC(=O)CNC(=O)[C@H]([C@@H](C)O)NC(=O)[C@H](C(C)C)NC1=O | – | rat adjuvant arthritis | iv, 0.05 mg/kg once daily, day 14 | – | liver weight | 5.88 ± 0.069 g
CC(C)C[C@H]1NC(=O)[C@H](NC(=O)CN)CSSC[C@H]2NC(=O)[C@H]3CSSC[C@H](C(=O)N[C@H](CC(N)=O)C(=O)N[C@H](Cc4ccccc4)C(=O)N[C@H](CO)C(=O)N[C@H](Cc4ccccc4)C(N)=O)NC(=O)[C@@H](CC(C)C)NC(=O)[C@@H](CCCCN)NC(=O)[C@@H](Cc4ccccc4)NC(=O)[C@@H](CC(C)C)NC(=O)[C@@H](CCCCN)NC(=O)[C@@H](CO)NC(=O)[C@@H](CSSC[C@@H](NC(=O)[C@@H](CCCCN)NC(=O)[C@@H](Cc4c[nH]c5ccccc45)NC(=O)[C@@H](Cc4c[nH]c5ccccc45)NC(=O)[C@@H](Cc4ccccc4)NC(=O)[C@@H](CCC(=O)O)NC1=O)C(=O)N[C@H](CC(N)=O)C(=O)N1CCC[C@@H]1C(=O)N[C@H](CC(N)=O)C(=O)N[C@H](CC(=O)O)C(=O)N[C@H](CC(=O)O)C(=O)N[C@H](CCCCN)C(=O)N3)NC(=O)[C@@H](CCCCN)NC(=O)[C@@H](CC(C)C)NC(=O)[C@@H](CCCCN)NC(=O)[C@H]1CCCN1C(=O)[C@@H](CCCNC(=N)N)NC2=O | WGA staining histology | D2.mdx mouse, skeletal muscle | dose not given, six weeks, treatment | – | fibrosis | no effect
COc1ccc2sc3c(c2c1)SCCNC3=O | – | mouse, CFPAC-1 xenograft | intravenous, 37.5 and 25 mg/kg/day, daily for 4 days | – | tumour growth | no effect
CC[C@H](C)[C@@H]1NC(=O)[C@@H](NC(=O)CNC(=O)c2ccc(F)cc2)CSSC[C@@H]2NC(=O)[C@H](C)NC(=O)CNC(=O)[C@@H]3CCCN3C(=O)[C@@H]3CSSC[C@@H](C(=O)NCC(=O)O)NC(=O)[C@H](Cc4ccc(O)cc4)NC(=O)CNC(=O)[C@H](CC(N)=O)NC(=O)CNC(=O)[C@H](CCCNC(=N)N)NC(=O)[C@H](CSSC[C@H](NC(=O)[C@H](CCCNC(=N)N)NC(=O)[C@H](Cc4ccccc4)NC(=O)[C@H](CC(C)C)NC(=O)[C@H](CC(C)C)NC(=O)[C@H]([C@@H](C)O)NC(=O)CNC(=O)[C@H](CC(C)C)NC(=O)[C@H](CC(=O)O)NC(=O)[C@H]([C@@H](C)O)NC(=O)[C@H](CCCNC(=N)N)NC(=O)[C@H](CCSC)NC(=O)[C@H](CC(N)=O)NC(=O)[C@H](CC(C)C)NC1=O)C(=O)N[C@@H](CCCNC(=N)N)C(=O)N[C@@H](CCCNC(=N)N)C(=O)N[C@@H](CC(=O)O)C(=O)N[C@@H](CO)C(=O)N[C@@H](CC(=O)O)C(=O)N3)NC(=O)[C@H]([C@@H](C)CC)NC2=O [fluorine-18 labelled] | PET | nude mouse, BXPC-3 xenograft | intravenous, 0.5 h | – | tumour uptake | 2.3 ± 0.6 %ID/g
CCOP(=O)(OCC)OCCCCOC(=O)CC1=C(C)C(=Cc2ccc([S+](C)[O-])cc2)c2ccc(F)cc21 (stereo not drawn) | immunoblotting, measured: phospho-EGFR | nude mice, orthotopic A549 tumour, tumour | inhalation, dose not given | reference: vehicle | protein level reduction | 58%
